Experimental data collected from several papers.
Parts stem from different laboratories: compare values within a part only. Positions count from the first letter of the parent shown.

Series 1 — technique: DHFR PCA, deep sequencing; medium: yeast; with: (+)-ABA 0.0091 µM; reference: wild-type fitted maximum; reading: higher = stronger binding; endpoint: relative binding score
Target: ABI1, truncated, D143A, DHFR fusion (Arabidopsis thaliana)
Notes: methotrexate growth selection, single substitutions
Starting sequence: PYL1, truncated, DHFR fusion (Arabidopsis thaliana); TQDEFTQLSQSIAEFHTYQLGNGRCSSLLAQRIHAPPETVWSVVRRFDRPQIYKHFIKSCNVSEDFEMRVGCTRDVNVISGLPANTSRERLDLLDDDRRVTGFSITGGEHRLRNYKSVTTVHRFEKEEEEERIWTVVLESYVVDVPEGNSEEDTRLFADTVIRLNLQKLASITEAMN; partner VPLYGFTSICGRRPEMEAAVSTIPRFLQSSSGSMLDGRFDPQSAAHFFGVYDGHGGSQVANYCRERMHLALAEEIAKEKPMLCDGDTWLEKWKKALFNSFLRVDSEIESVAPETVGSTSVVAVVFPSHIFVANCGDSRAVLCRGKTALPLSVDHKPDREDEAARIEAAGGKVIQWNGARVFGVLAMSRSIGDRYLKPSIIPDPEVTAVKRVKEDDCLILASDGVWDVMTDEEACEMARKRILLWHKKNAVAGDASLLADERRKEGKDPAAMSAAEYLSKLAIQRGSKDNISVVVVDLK
F15N: -0.966%
T39S: 6.71%
D144C: -2.6%
L93P: 6.45%
I105H: 3.22%
E127F: 20%
N77M: 41.3%
K54G: -2.33%
A13G: 9.91%
L156I: 17.7%
G23R: 21.7%
R69F: -0.662%
F157I: -1.36%
L20K: 40.5%

Series 2 — technique: RNA Bind-n-Seq; form: RNA; medium: in vitro; concentration: 365 nM; reference: no-protein control; reading: higher = stronger binding; endpoint: RBNS enrichment (R)
Target: RNA binding protein fox-1 homolog 2, RRM domain, GST-SBP tag (RBFOX2, Homo sapiens, UniProt O43251-10, residues 100-194)
Notes: natural RNA segment, single round, ends assumed
Constant ends, left off below: GGGAGUUCUACAGUCCGACGAUC … UGGAAUUCUCGGGUGCCAA
Target sequence (chain): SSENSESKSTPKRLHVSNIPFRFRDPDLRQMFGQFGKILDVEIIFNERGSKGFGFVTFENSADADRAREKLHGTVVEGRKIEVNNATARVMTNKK
CCCCCUCUCCGGAGCGCUUUGUAAUGCCUUAUUCACGUCGAAAACCAGGAGACUCGGGCUUCGUUUCUUCAUGGCAAGUCUUCAGAGUUAAUUUUCUUUAGAUGUGUAAA: 0.475
UCCUACCUUACAUGAAAUCCAUUCAACCGGCUCUGGACACUUCUCUUAUCUGUUCCCUUCCUGGUUUCCAAAGAAGCCCUCUGUGAACAUCAUCAAAGCAUGGGUACCCC: 2.65
UCACUGUGCCAGAGCAAGCACGCUGAGAAGGCUAGUCUCCAUAGUUGAUGGUUAAUGUUACUUCCACAAAAUAUGUGAAUUUGCUGCUUCUGAGAGGCAAUGUGAAAGAG: 0.847
GAGAUUUUUAACGUAACUAUUAACACAGUUUUAACAUAAGUUAUCCCACUGGGUUUAAGAGCAUCUUGAAUGUAUAAUCCUUUUUGUAACCCAGGUUGGUUUCUACUUUU: 0.754
AAUAUGCAUUUAGCUUUAGUUUACUGAACAGUAAACAUGCUUUUAUUUCUUGCUAUGAGAGUAUUUUGUAUGGUAUUAUUUCUUUUUUGUUGUAAGCUAACAAGUGGAGA: 0.327
AUGCUAUAGCCUUCAUGUGGGUGCUACCUAGAGCAGGCGUGAACUGCUGGGUGGUGAUUGUGAGUUCAGACAAUAAAAAAAAUGUAUUUUUUUCAAUACUGUAUAAAAAU: 0.568
AGAAAGAAUAGAAGCGGGAGGCCCGCCCCGGUGGACACUAAGAUGGACCUCAAGUAGACUGCUCCUUGUACUUGAAGCGCUUACCUUUUGAUUUCCUGACUUUAUGUUCU: 0.406
CAGAGUUGUGUUUUUCUUUAUAAACAAAUGAUAAACUAGCUUUUUUAAAAAGUGACUGUUAGAACUUUUUUAGCUCUGAGUAGUGGUCCCUUUUUAAACUCCUGGAAACA: 0.358

Series 3 — target: CCNB1, cyclin fold, Cln2 fusion (human); technique: yeast growth competition, sequencing; medium: yeast; notes: weak parent motif; reference: not given; reading: higher = stronger binding; endpoint: normalised enrichment score
Starting sequence: ORC1 docking peptide (human); PRARKRLELGNLG
PRARKRLRLGNLG [E8R]: 0.706
PRARKRLMLGNLG [E8M]: 0.597
PRARKRLELGQLG [N11Q]: 0.0273
PRARKRLELGKLG [N11K]: -0.511
PRARKRLELRNLG [G10R]: 0.539
PRAEKRLELGNLG [R4E]: 0.587
LRARKRLELGNLG [P1L]: 0.701
PRARKRLEGGNLG [L9G]: 0.555
PRARKRLELGRLG [N11R]: 0.685
PNARKRLELGNLG [R2N]: 0.895
PRARQRLELGNLG [K5Q]: 0.305
YRARKRLELGNLG [P1Y]: 0.666
PRAGKRLELGNLG [R4G]: 0.669
PRARKRLELGNLT [G13T]: -0.0782
PRARKRLDLGNLG [E8D]: 1.69
PRARKRLELGNYG [L12Y]: -0.191
PRARKRLELGNLR [G13R]: 0.246

Series 4 — technique: RNA Bind-n-Seq; form: RNA; medium: in vitro; concentration: not given; reference: input RNA pool; reading: higher = stronger binding; endpoint: bound/input enrichment
Target: RING finger protein unkempt homolog, zinc fingers 1-6, GST-SBP tag (UNK, Homo sapiens, UniProt Q9C0B0, residues 30-357)
Chain of UniProt Q9C0B0 (30-357, looked up): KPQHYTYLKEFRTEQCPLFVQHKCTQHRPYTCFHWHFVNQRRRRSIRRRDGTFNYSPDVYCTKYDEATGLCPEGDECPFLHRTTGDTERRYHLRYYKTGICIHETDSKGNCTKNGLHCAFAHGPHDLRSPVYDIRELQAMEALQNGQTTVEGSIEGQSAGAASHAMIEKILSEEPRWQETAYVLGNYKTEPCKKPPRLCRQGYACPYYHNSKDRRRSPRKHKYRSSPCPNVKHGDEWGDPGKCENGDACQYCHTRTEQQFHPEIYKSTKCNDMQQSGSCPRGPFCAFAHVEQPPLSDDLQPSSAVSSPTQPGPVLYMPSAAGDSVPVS
Notes: RNA with constant flanks, human and mouse sites, ends assumed
Constant ends, left off below: GGGAGUUCUACAGUCCGACGAUC … CAACAGAGGAUUGAGCAUCA
GAUCGGACUUGUGAAUUAUCUAGAAGAAAUUGUCUGCUGUCCUUUUCUAAUCCGGUGAAUUUAGAUGCCUCCGAAGACAAGGACAGCCCUUUCGGUAAUGGUCAAUCCAAUUUUUCUGAG: 0.155 ratio
CAUUUCUAUAUUUGUACAUUUUCAUUUAUGAGUUCUAUGAUGUGGUCUCUGAAAGACCAAAUAGAUUUCUAUUUCUACUUCUUAUUUUUAAGUUCAUUGUGUCUACAAAUUGUUAAUAUU: 0.836 ratio
GGGGACCCGGAGCUGCAGCCCAUCCGGAGCUAUGAGAUCGCCAGCUUGGUCCGCACACUCUUUAGGCUGUCGUCUGCCAUCAACCACAGAUUUGCAGGACAGAUGGCGGCUCUGUGUUCC: 0.114 ratio
AUUUACUUCUGGAACAUAGCCACCAUUGCGGUCUUCUACGCACUUCCUGUGGUGCAGCUGGUGAUCACCUACCAGACGGUGGUGAAUGUCACAGGGAACCAGGACAUCUGCUACUACAAC: 0.145 ratio
AAGGGGGAGGUCCCCCCCAAGGAGACCCCCAAGAAGAAGAAGAAAUUCUCUUUCAAGAAGCCUUUCAAAUUGAGCGGCCUGUCCUUCAAGAGAAAUCGGAAGGAGGGUGGGGGUGAUUCU: 0.304 ratio
GAUAUACUUACGUAAUGGAGCUGUCAAAGCCGAGAGACCAGCCUGCGUCCUAAAGUUUGCUUUAGAGAGUAGGAAUGUCGGGGUUUCCAGUUAGAAAACCUUUAUUUUUGGAAACGGAAU: 1.46 ratio
GGAGACGUUUGAUGCAAAUGAUUUGUAUCAGGGGCAGAAUUUUAACAAGGUCCUCAGUUCCUUAGUGACUCUAAAUAAAGUAACAGCAGACAUCGGGCUGGGGAGUGACUCCGUGUGUGC: 0.249 ratio
AUUGCUGUCACCACCAUCGACAAUAUUGGUGCUGGUGUGAUCCAGCCAGGCCGAGGUUUUGUUCUUUAUCCAGUGAAAUACAAAGCUAUUGUUUUCCGGCCCUUUAAAGGUGAAGUGGUG: 0.238 ratio

A few entries again (series 3):
PRARKRLELGRLG [N11R]: 0.685
PNARKRLELGNLG [R2N]: 0.895
LRARKRLELGNLG [P1L]: 0.701
PRAGKRLELGNLG [R4G]: 0.669
YRARKRLELGNLG [P1Y]: 0.666
